Results of several laboratories.
Compare with care: the assays were run in different laboratories. ± marks the error that the study gave.

Structure (SMILES) | test | system | conditions | scale | endpoint | result
CO[C@H]1C[C@@H]2CC[C@@H](C)[C@@](O)(O2)C(=O)C(=O)N2CCCC[C@H]2C(=O)O[C@H]([C@H](C)C[C@@H]2CC[C@@H](OC(=O)NCCOCCOCCOCCOCCOCCOCCOCCOCCC(=O)N3CCc4cc(Cn5nc(-c6ccc7oc(N)nc7c6)c6c(N)ncnc65)ccc4C3)[C@H](OC)C2)C[C@@H](O)[C@H](C)/C=C(\C)[C@@H](O)[C@@H](OC)C(=O)[C@H](C)C[C@H](C)/C=C/C=C/C=C/1C | phase 1 dose escalation, item: fatigue | advanced solid tumour patients | intravenous, 10 mg weekly, any grade | – | TRAE incidence | 50%
O=C(Nc1ccc2c(c1)B(O)OC2)c1ccccc1OCc1ccccc1 | PAMPA | pre-coated trilayer membrane | 200 µM, 5 h, pH 7.4, donor plate, PBS | – | donor concentration | 161 ± 69.1 µM
CC(C)[C@@H]1CC[C@@H](C)C[C@@H]1O | acute oral toxicity OECD | Swiss albino mice, serum | oral, 1000 mg/kg | – | alanine aminotransferase | 51.9 ± 8.86 U/L
C=CC(=O)Nc1cc(Nc2nccc(Nc3cc(Cl)c(F)cc3C(C)(C)O)n2)c(OC)cc1N1CC[C@@H](N(C)C)C1 | – | human patients | oral, 50 mg, treatment-emergent adverse events | – | patients with pneumonia | 0%
O=C(O)CCCOc1ccc(F)cc1-c1cc(-c2ccccc2C(F)(F)F)n(-c2ccccc2)n1 | item: T-Cho | Crl:CD(SD) rats, male, blood | iv, 25 µg/kg, 14 days | – | blood chemistry | 53.5 ± 6.4 mg/dL
O=C1Nc2cc3[nH]nc(-c4ccncc4)c3cc2CN1Cc1ccccc1 | CTCAE v4.03 | human, relapsed or refractory advanced solid tumours | intravenous, 3.6 mg/kg | – | patients with QTc prolongation | 0%
C[C@H]1COCCN1c1nc(NCc2cccnc2C(F)(F)F)c2cccnc2n1 | – | anaesthetized rat | intravenous, 10 mg/kg | reference: control | QRS change | 11.5%
O=S(=O)(Nc1ccccc1)c1ccc(NC(=S)Nc2ccccc2)cc1 | – | mouse, male, blood | oral, 20 mg/kg daily, 14 days | – | mean corpuscular haemoglobin | 15.6 pg
O=C(Nc1ccccc1)C1CCN(C(=O)Oc2cccnc2)CC1 | psychotropic effects VAS | healthy women | 100 mg | reference: pre-dose baseline, direction not given | change in Meaning score | 0.1
Nc1nc2cc(-c3ccc4ncc(C(=O)N5CCOCC5)n4c3)ccc2o1 | – | human, advanced solid tumours | 100–300 mg once daily | – | respiratory failure adverse events | 4%
Cn1cncc1-c1c(F)cncc1NC(=O)c1c(N)nn2cc(F)cnc12 | – | human patients | oral, 180 mg once daily, 21 days | – | dose-limiting toxicity anaemia | 30%
NC(=O)c1cccc(-c2cc(OC(=O)NC3CCCCC3)ccc2O)c1 | – | mouse | oral, 10 mg/kg | – | apparent volume of distribution | 313000 mL/kg
CCCCCCCCCCCCCCCC(=O)N[C@@H](CCC(=O)NCCCC[C@H](NC(=O)[C@H](CC(=O)O)NC(=O)[C@H](CO)NC(=O)[C@@H](NC(=O)[C@H](Cc1ccccc1)NC(=O)[C@@H](NC(=O)CNC(=O)[C@H](CCC(N)=O)NC(=O)[C@H](CO)NC(=O)[C@@H](N)Cc1c[nH]cn1)[C@@H](C)O)[C@@H](C)O)C(=O)N[C@@H](CO)C(=O)N[C@@H](CCC(=O)O)C(=O)N[C@@H](Cc1ccc(O)cc1)C(=O)N[C@@H](CC(C)C)C(=O)N[C@@H](CC(=O)O)C(=O)N[C@@H](CO)C(=O)N[C@@H](CCC(=O)O)C(=O)N[C@@H](CCCNC(=N)N)C(=O)N[C@@H](C)C(=O)N[C@@H](CCCNC(=N)N)C(=O)N[C@@H](CC(=O)O)C(=O)N[C@@H](Cc1ccccc1)C(=O)N[C@H](C(=O)N[C@@H](C)C(=O)N[C@@H](Cc1c[nH]c2ccccc12)C(=O)N[C@@H](CC(C)C)C(=O)N[C@@H](CCC(=O)O)C(=O)N[C@@H](C)C(=O)NCC(=O)NCC(=O)O)C(C)C)C(=O)O | item: Hyperglycaemia | humans CrCl 45 to 60 mL/min | subcutaneous, 100 µg single dose | – | treatment-related adverse events | 0%
C[C@@H](NC(=O)N1C(=O)[C@H](Cc2ccnc(N)c2)[C@H]1C(=O)O)C1CCCCC1 | – | healthy adult Chinese volunteers | continuous intravenous infusion, 0.6 mg/kg/h, 5-day infusion, CTCAE 5.0 grading | – | incidence of AEs leading to death | 0%
CCc1ccc(CC/C=C/c2ccc3c(c2)C(=O)CC3)cc1 | – | Sprague-Dawley rat, male | oral, 30 mg/kg/day, 14 days | – | ALP serum activity | 217 U/L
[2H]C([2H])([18F])[C@]([2H])(N)C(=O)O | PET | athymic nude mice, U-87 MG, muscle | dose not given, 20 min post-injection | – | tissue uptake | 1.44 ± 0.21 %ID/cc
CC(C)CC(=O)OC[C@H]1O[C@@](C#N)(c2ccc3c(N)ncnn23)[C@H](O)[C@@H]1O | – | monkey plasma | 90 µM | – | fraction unbound | 0.254
COc1ncccc1-c1cnn2ccc(N3CCN(C(=O)OC(C)C)CC3)nc12 | – | rat, STZ model, brain | oral, 3 mg/kg, 240 min | – | drug concentration | 950 nM

Structure (SMILES) | test | system | conditions | scale | endpoint | result
Cn1ncc(-c2nc(N[C@H]3CC[C@H](N)CC3)ncc2Cl)c1CC1CC1 | phase I dose escalation | human patients | dose not given, grade 3-4 TEAE | reference: patients | acute respiratory failure incidence | 3%
CCS(=O)(=O)Nc1ccc(Oc2ccc(F)cc2F)c(-c2cn(C)c(=O)c3[nH]ccc23)c1 | fatal malignant neoplasm progression | human, relapsed/refractory AML | oral, dose not given | – | treatment-emergent adverse events | 0%
[O-][S+]1CCc2nc(N3CCC(c4ncc(Cl)cn4)CC3)nc(NC3(CO)CCC3)c21 (centres unmarked) | item: mean | idiopathic pulmonary fibrosis patients, blood | 18 mg twice daily, at last treatment | – | alanine aminotransferase | 12.7 U/L
N[C@@H]1c2ccccc2OC12CCN(c1cnc3c(N4CCCc5ncccc54)n[nH]c3n1)CC2 | – | patients advanced metastatic solid tumours | oral, 60 mg once daily, pooled RP2D cohorts | – | incidence grade ≥3 serious TEAE | 28%
CC(=O)c1c(C)c2cnc(Nc3ccc(C4CCN(CCS(C)(=O)=O)CC4)cn3)nc2n(C2CCCC2)c1=O | – | HR+/HER2- advanced breast cancer patients | oral, dose not given | – | patients with TEAE ≥grade 3 | 73.7%
O=S(=O)([O-])C(F)(F)C(F)(F)C(F)(F)C(F)(F)C(F)(F)C(F)(F)C(F)(F)C(F)(F)F.[K+] | – | male C57BL/6J mice, EtOH-fed, liver | dose not given | reference: efavirenz | NEFA level | no effect
C[C@]1(CO)Cc2ncn(-c3ccc(C#N)c(Cl)c3)c2C(=O)O1 | – | human, Chinese, plasma | 3 mg single dose, geometric mean | – | Cmax | 173 nM
CN[C@H](CC(C)C)C(=O)N[C@H]1C(=O)N[C@@H](CC(N)=O)C(=O)N[C@H]2C(=O)N[C@H]3C(=O)N[C@H](C(=O)N[C@H](C(=O)O)c4cc(O)cc(O)c4-c4cc3ccc4O)[C@H](O)c3ccc(c(Cl)c3)Oc3cc2cc(c3O[C@@H]2O[C@H](CO)[C@@H](O)[C@H](O)[C@H]2O[C@H]2C[C@](C)(N)[C@H](O)[C@H](C)O2)Oc2ccc(cc2Cl)[C@H]1O | – | female rat, serum | intraperitoneal, 200 mg/kg, 7 h | – | AUC | 703 mg·h/L
O=C1O[C@H]2[C@@H]3OC(=O)c4cc(O)c(O)c(O)c4-c4c(O)c(O)c5oc(=O)c6c(c(O)c(O)c7oc(=O)c4c5c76)-c4c(cc(O)c(O)c4O)C(=O)OC[C@H]3OC(O)[C@@H]2OC(=O)c2cc(O)c(O)c(O)c2-c2c1cc(O)c(O)c2O (mixture of isomers) | – | BALB/c mice | 1000 mg/kg/day, 28 days, subacute toxicity study | – | spleen weight | 0.089 g
CCCCCOc1ccc(-c2ccc(-c3ccc(C(=O)N[C@H]4C[C@@H](O)[C@@H](OCC[N+](C)(C)C)NC(=O)[C@@H]5[C@@H](O)[C@@H](C)CN5C(=O)[C@H]([C@@H](C)O)NC(=O)[C@H]([C@H](O)[C@@H](O)c5ccc(O)cc5)NC(=O)[C@@H]5C[C@@H](O)CN5C(=O)[C@H]([C@@H](C)O)NC4=O)cc3)cc2)cc1 | – | adult ICU patients, mITT, serum | dose not given, Follow-up | – | alanine aminotransferase | 15.1 U/L
COc1cc2c(Oc3ccc4[nH]c(C)cc4c3F)ccnc2cc1OCC1(N)CC1 | – | paediatric recurrent refractory sarcoma | 8 mg | – | grade 3 Hematuria | 0%
CC[C@H](C)[C@H](NC(=O)[C@H](Cc1ccccc1)NC(=O)[C@H](CCC(=O)O)NC(=O)[C@H](CCCNC(=N)N)NC(=O)[C@H](C)NC(=O)[C@H](C)NC(=O)[C@H](CCC(N)=O)NC(=O)[C@H](CCC(=O)O)NC(=O)[C@H](CCC(=O)O)NC(=O)[C@H](CC(C)C)NC(=O)[C@H](Cc1ccc(O)cc1)NC(=O)[C@H](CO)NC(=O)[C@H](CO)NC(=O)[C@@H](NC(=O)[C@H](CC(=O)O)NC(=O)[C@H](CO)NC(=O)[C@@H](NC(=O)[C@H](Cc1ccccc1)NC(=O)[C@@H](NC(=O)CNC(=O)[C@H](CCC(=O)O)NC(=O)[C@H](C)NC(=O)CCc1cnc[nH]1)[C@@H](C)O)[C@@H](C)O)C(C)C)C(=O)N[C@@H](C)C(=O)N[C@@H](Cc1c[nH]c2ccccc12)C(=O)N[C@@H](CC(C)C)C(=O)N[C@H](C(=O)N[C@@H](CCCNC(=N)N)C(=O)NCC(=O)N[C@@H](CCCNC(=N)N)C(=O)N[C@@H](CCCCNC(=O)COCCOCCNC(=O)COCCOCCNC(=O)CC[C@H](NC(=O)CCCCCCCCCCCCCCCCC(=O)O)C(=O)O)C(=O)NCC(=O)NCC(=O)N[C@@H](CO)C(=O)N[C@@H](CCSC)C(=O)N[C@H](C(=O)N[C@@H](CCCCNc1c(NCCCCCN(O)C(=O)CCC(=O)NCCCCCN(O)C(=O)CCC(=O)NCCCCCN(O)C(C)=O)c(=O)c1=O)C(=O)O)C(C)C)C(C)C [zirconium-89 labelled] | ex vivo gamma counting | male Sprague-Dawley rats, lung | intravenous, 1 nmol, 24 h, mean of 3 animals | – | tissue uptake | 0.88 %ID/g
C[C@]12CC[C@H](n3ccnc3)CC1=CC[C@@H]1[C@@H]2CC[C@]2(C)C(n3cnc4ccccc43)=CC[C@@H]12.Cl.Cl | – | CD-1 mice, male, plasma | oral, 10 mg/kg | reference: intravenous 1 mg/kg | oral bioavailability | 176%
CN1CCN(S(=O)(=O)c2cc([N+](=O)[O-])ccc2N(CCOS(C)(=O)=O)CCOS(C)(=O)=O)CC1 | – | naive NOD/SCID mice, pooled blood | intraperitoneal, 12.5 mg/kg, week 4 | – | ALT | 32 U/L
CC(C)C[C@H](NC(=O)[C@H](CCCCN)NC(=O)OCC1c2ccccc2-c2ccccc21)C(=O)N[C@H](C(=O)N[C@@H](Cc1ccccc1)C(=O)N[C@@H](Cc1ccccc1)C(=O)N[C@@H](CCCCN)C(=O)NCC(=O)N[C@@H](Cc1ccccc1)C(=O)N[C@@H](C)C(=O)N[C@@H](Cc1c[nH]c2ccccc12)C(=O)N[C@@H](CC(N)=O)C(=O)N[C@H](C(=O)N[C@H]1CSSC[C@@H](C(=O)N[C@@H](Cc2c[nH]cn2)C(=O)N[C@@H](CCCNC(=N)N)C(=O)N[C@@H](CCCNC(=N)N)C(=O)N[C@@H](C)C(=O)N[C@@H](CC(N)=O)C(N)=O)NC(=O)[C@H](C(C)C)NC(=O)[C@H](CCCNC(=N)N)NC(=O)[C@H](C(C)C)NC(=O)CNC(=O)[C@H](CC(N)=O)NC(=O)[C@H](CCCNC(=N)N)NC(=O)[C@H](Cc2ccc(O)cc2)NC(=O)[C@H](C(C)C)NC1=O)C(C)C)C(C)C | – | ICR mice, blood | intraperitoneal, 5 mg/kg, day 5 | – | basophils | 1.47 ± 0.09%
COc1ccc2nc3cc(Cl)ccc3c(Nc3cc(CN4CCCC4)c(O)c(CN4CCCC4)c3)c2n1 | – | mouse, blood | intraperitoneal, 57 mg/kg | – | mean corpuscular volume | 45.3 fL
Cn1cc(-c2nc(N[C@@H]3CCCC[C@@H]3N)c(F)c3c2C(=O)NC3)cn1 | item: Melaena | patients with relapsed or refractory AML | oral, 60 mg once daily | – | hemorrhagic adverse events | 25%
